Results of several laboratories.
Each numbered part is a random draw from the data of one study; scales do not carry over between parts.

Block 1
Target: Interferon regulatory factor 5, full length, phosphomimetic (IRF5, Homo sapiens, UniProt Q13568-2, residues 1-514, K96S/S451D/S453D/S456D/S462D)
Method: protein-binding microarray
Form: double-stranded DNA, one strand shown
Medium: in vitro
Tested at: 250 nM
Setting: 60-bp whole probe
Added: salmon DNA 0.4 mg/ml
Relative to: random background probes
Direction: higher = stronger binding
Measurement: log fluorescence
All sequences stand within: GCCTAGCAC … GTCTTGATTCGCTTGACGCTGCTG
Oligonucleotide = GACGGACTGGGTTACGGGACGTGCTAG; value = -0.441 z-score
Oligonucleotide = ATCTCTTTCCTTACTTCCCAGTGCTAG; value = 1.4 z-score
Oligonucleotide = TTAGATACCGGGTTTCGATTAGTGCTA; value = 6.46 z-score
Oligonucleotide = TTAGGACGGCTTATCCTTTAGTGCTAG; value = -0.641 z-score
Oligonucleotide = TCATCTGTCATTTTCTCACTGTGCTAG; value = 1.15 z-score
Oligonucleotide = TTAGGTCTCCGACTGCTTTAGTGCTAG; value = -0.461 z-score
Oligonucleotide = CTAGGTTTCGGGTTTCGGTTAGTGCTA; value = 9.87 z-score
Oligonucleotide = TTAGCTCTCGGACTGGGTTAGTGCTAG; value = -0.305 z-score
Oligonucleotide = GACGGACTGGGTATCGGGAGGTGCTAG; value = 0.144 z-score
Oligonucleotide = GACGGACTGGGTAACGGGACGTGCTAG; value = -0.376 z-score
Oligonucleotide = TTTGGACTGGGGTATCGGTTAGTGCTA; value = 2.57 z-score
Oligonucleotide = ATGTTTTGAGTTTTCCTTCAGTGCTAG; value = 1.06 z-score
Oligonucleotide = GACGGTTTCGACTTTCGGCACGTGCTA; value = 8.16 z-score
Oligonucleotide = TCTCTTTCCTTCTTGATGCAGTGCTAG; value = 1.53 z-score
Oligonucleotide = GTAGGTCTCGGTTTCGGTTAGTGCTAG; value = 8.46 z-score
Oligonucleotide = TGTTCTTTTCTGTTGTCTGTGTGCTAG; value = 2.62 z-score
Oligonucleotide = GGTCAGTCAGGTCACTTCTGGTGCTAG; value = -0.408 z-score

Block 2
Target: RING finger protein unkempt homolog, zinc fingers 1-6, GST-SBP tag (UNK, Homo sapiens, UniProt Q9C0B0, residues 30-357)
Method: RNA Bind-n-Seq
Form: RNA
Medium: in vitro
Tested at: not given
Setting: RNA with constant flanks, human-mouse chimeric sites, ends assumed
Relative to: input RNA pool
Direction: higher = stronger binding
Measurement: bound/input enrichment
All sequences stand within: GGGAGUUCUACAGUCCGACGAUC … CAACAGAGGAUUGAGCAUCA
Residues (chain): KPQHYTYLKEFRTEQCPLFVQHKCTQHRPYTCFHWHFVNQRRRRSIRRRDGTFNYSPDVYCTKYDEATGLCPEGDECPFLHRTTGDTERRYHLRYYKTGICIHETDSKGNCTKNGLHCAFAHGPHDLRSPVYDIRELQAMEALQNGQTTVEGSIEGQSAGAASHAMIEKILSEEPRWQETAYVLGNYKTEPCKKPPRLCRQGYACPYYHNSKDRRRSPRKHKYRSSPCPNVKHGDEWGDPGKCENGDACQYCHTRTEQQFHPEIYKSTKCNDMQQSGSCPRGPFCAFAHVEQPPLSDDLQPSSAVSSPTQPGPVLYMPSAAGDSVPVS
Oligonucleotide = ACUCAGAGAUCCACCUCCCAAAGUGCUGGGAGUAAAGGUGUGGCCACCACACCUAACUUGAUGGAUAUAUAUUUUUUCUCUUUUAUGUCUUCCUGUUCGUCCAGGGAGCAAGAACGGGUU; value = 0.311 ratio
Oligonucleotide = CUCAGAGACGUGGCAUAUCAGUAUGUGAAAAAGGGGGCUCGUAUAUUUGUGGAAGGGAAAGUGGACUAUGGCGAGUACAUGGAUAAAAACAAUGUGAGGCGACAAGCAACAACAAUCAUA; value = 0.312 ratio
Oligonucleotide = GCUGAAAAUGAAGAAGAGGCAGCUGAUGUCUGGUACAACCUGGGGCAUGUAGCUGUGGGAAUCGGAGAUACAAACUUGGCCCACCAAUGCUUCAGGCUGGCCCUGGUCAACAACAACCAC; value = 0.154 ratio
Oligonucleotide = AGUGUGCAGGAAUUCAUGACCUUCACGAGUCAACUGAUUGUGGAACGCUCGGGGAAAGGCAGCAGAGCUUCUGUCAAAGAACAAGAGUAUCUUUGCCACGUCUACGUCCGGAGCGACAGU; value = 0.0825 ratio
Oligonucleotide = CAGCUGCGAGGCCGCGGUUUCCCCCUGGGCCUCCCCAGCAGCAGCCAUGGGCAUCAAAUUUUUAGAAGUUAUUAAACCAUUCUGUGCAGUUCUACCAGAAAUUCAGAAACCGGAAAGGAA; value = 3.14 ratio
Oligonucleotide = GAUCAUGAACCACCAUCAGAAAUGAAGAUGAGAUUACCCAAGACGAGCAAAACAGCUGCGCUACAGAAAAGUAAACUUAACCUUGCACCAAUUUCUCAUGAAGAUACAAGUUAAGAGAGC; value = 0.294 ratio
Oligonucleotide = CACUCGAGGGCUGCCGUUUUCUGUUUCUCCCUGGGCUGCAGACAGCUAGAAGAUUUUAUCUAGCUUAUACAAGGCUGCUGGUGUUCCCUCUUUUUUUCCACGAGGGUGUUUUUGGCUGCA; value = 0.406 ratio
Oligonucleotide = GCAUAUGGUUAUCGAGGAAAGGACUGUAGAGCGAAUGUAUACCUGCUUCCCACAGGGGAGAUAGUUUAUUUUAUCGCCUCAGUGGUAGUCCUGUUUAAUUAUGAGGAGAGGACUCAGCGA; value = 0.375 ratio
Oligonucleotide = GCCACCAGAUCCCAGAAACAUGACCCUUGCUGCCUACAAAGAGAAGAUGAAGGAGCUCCCGCUGGUGUCUCUGUUCUGCUCCUGCUUCCUGGCCGAUCCCCUGAAUAAAUCAUCCUACAA; value = 0.411 ratio
Oligonucleotide = UAUCCAACUUUCUUGCCACGUUUUGAAUUCCAAGACAUUAUUCCUCCAGAUGACUUCCUAACGAGUGAUGAAGAGCAAGAUUUGGUUUUAUUUGGAACUAUGAGAGGACAAGUUGUUGGA; value = 0.151 ratio
Oligonucleotide = UUAAUCCCCUUUACUGCUCCACCACUGCUCAUGGUAAUAACAAAGUCUUAUAUUCCCGUCCUAGCUUUCACUCAGAUGGCUUAUGGAGCCGGUUUCCUAGCUUUCUUGGGAGGGAUCAGA; value = 0.339 ratio

Block 3
Target: RNA binding protein fox-1 homolog 2, RRM domain, GST-SBP tag (RBFOX2, Homo sapiens, UniProt O43251-10, residues 100-194)
Method: RNA Bind-n-Seq
Form: RNA
Medium: in vitro
Tested at: 365 nM
Setting: natural RNA segment, single round, ends assumed
Relative to: no-protein control
Direction: higher = stronger binding
Measurement: RBNS enrichment (R)
All sequences stand within: GGGAGUUCUACAGUCCGACGAUC … UGGAAUUCUCGGGUGCCAA
Residues (chain): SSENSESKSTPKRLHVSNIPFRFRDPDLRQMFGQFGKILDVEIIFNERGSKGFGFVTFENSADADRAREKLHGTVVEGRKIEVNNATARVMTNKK
Oligonucleotide = UCACUGAAGGCUGUGAGUUGCUUUCAAUGUGACAACACUAUGAUGUCAUUUGGAAGGAUUUGCCAGGACAGACUGAUUCUGAGUCCUGGGUGCCGUAUGUGUAUGCGGCA; value = 0.36
Oligonucleotide = AGUUUUAUGAGACGGGUGUAAUAAUAUCUCCACCUGUGAUUUGGGGGUGGGACUCUUAUUUUGGGUAGCCAUUUAUUGACUUCACCUUUUUGCCAAGGACGUUUGUCUCA; value = 0.299
Oligonucleotide = AGCAACCUGGCCAGCCUGAGGUCUUCCAGGAGAUGCUGUCCAUGCUGGGAGAUCAGAGCAACAGCUACAACAAUGAAGAAUUCCCUGAUCUAACUAUGUUUCCCCCCUUU; value = 1.85
Oligonucleotide = CCUAGAAGGACUCUCCCCAACUGUCAAAGCUAAUGCUUUGAGCACUUAGCAAACCAGCAUAAGAGAAUCUACCCAUGGAAUGUUCUGGAAGGUGGGCAGUCCAGGUUACA; value = 3.11
Oligonucleotide = AUCAGUUAUCACAGCUGCCUGUGGGUCCCGGGUAUUUCCAUUCCUGCCCCUUGUUGGCCCGAGGAAGGAUGUGGAAAGAGCACCUGGUGGGAUGAAGGUCCAACAGCCUG; value = 0.289
Oligonucleotide = CUGGGUUCAAAAAAAAAAAUUCCAGUGUCUGUAUACAGGAGCACUUGGUUUGGGGGUUCAGGCUCUAGGAUCGAUUCCAGAAGGAGCCUUGAGCCCCAACCCCGUGAAAA; value = 0.27
Oligonucleotide = CCUUCCUGGUGGUAUCAGCUUCCAGCUGUUUCAACCCUUCCCAGCCCGUUGCUGGCGAUGGGCCCAUGCCCCCUCUCCAGGCUCUCUAGAGGCAGGCAGGUCCUUGGAAU; value = 0.189
Oligonucleotide = CUCAGAGAGUGUCGGUGGUUAAAGUAAGAGAACAUUGGUUGGUCAGCAACGUGAUCUGUAACUUGAUGUGGAGACGGGUGGUAGGACCCUGCUGAGGUUCAGAACUUUGA; value = 1.68
Oligonucleotide = ACCAAGAGCAGAGGCAACAAAUAGAGGCCUGGCCUCCAGGUGCCGGAUCCAGACACCUGACCUAGAAUGCCUGCCCGCUAUCCCUGUGGCAGGAAAUAUCCCCUCAUGUC; value = 0.426
Oligonucleotide = UUUGAUAAGUUGUUGAGAUUCUGUUAUUUGAUAAUAUUCUUCGGCUGUCCAUCCAGCAUCUUAAUCACUUUAAAACUGUGAUUGUUAUUUGCAACUCUGUUCUUUGGAAA; value = 0.517
Oligonucleotide = UGAUGUGUGGUGACUUCCCUCUGCUGGCUUAUGCAGUGAUGGUGAAUGAACCAGUCAGUGGAAAACUGCUGAGGUGGGACAGCUGGGAGCCAGGGAGCCGAAGCAGUGCU; value = 1.29
Oligonucleotide = GUGACAAGUGGUCCUCACCAGUGUUAAGUGCUUCUGGAUUCAUGGGUGAGUUCCUUGGACGACCCCAGACAGGCUUCUGGAUCUGGCUCCAGGGUCAUCACAUGUCAAAG; value = 0.206

Block 4
Target: Histone acetyltransferase KAT6A, winged helix 2, GST fusion (KAT6A, Homo sapiens, UniProt Q92794, residues 85-181)
Method: protein binding microarray
Form: double-stranded DNA, one strand shown
Medium: in vitro
Tested at: not given
Setting: 8-mer, flanks averaged, mean of 2 arrays, mostly near background
Relative to: not given
Direction: higher = stronger binding
Measurement: E-score
Residues (chain): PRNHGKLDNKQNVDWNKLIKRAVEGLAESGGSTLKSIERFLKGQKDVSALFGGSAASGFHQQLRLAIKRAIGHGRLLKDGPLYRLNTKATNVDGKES
Oligonucleotide = AGGGAACA; value = -0.0822
Oligonucleotide = CTCCAGAA; value = 0.0965
Oligonucleotide = CACCCTGC; value = 0.187
Oligonucleotide = CATGGCGG; value = 0.175
Oligonucleotide = AAGGACCA; value = -0.0322
Oligonucleotide = GGTATAGA; value = -0.176
Oligonucleotide = AGGCGCTC; value = 0.116
Oligonucleotide = AGGGTGAC; value = 0.0901
Oligonucleotide = ATGCGCGG; value = 0.117
Oligonucleotide = AACCTCAC; value = -0.117
Oligonucleotide = CATATGTA; value = -0.121
Oligonucleotide = CAAAGCAC; value = 0.044
Oligonucleotide = CGGGGGAC; value = 0.14
Oligonucleotide = CAGCCTCA; value = -0.0174
Oligonucleotide = ACACTACC; value = -0.206
Oligonucleotide = AGAAGCAC; value = -0.0798
Oligonucleotide = AACTGGAT; value = 0.0638
Oligonucleotide = CCTGTACA; value = -0.0597
Oligonucleotide = CCCTAAGG; value = -0.0085
Oligonucleotide = ATATTGAT; value = 0.113
Oligonucleotide = CTGTGAAG; value = 0.0281
Oligonucleotide = CGCCCACG; value = 0.0754
Oligonucleotide = CGCGGGGC; value = 0.275
Oligonucleotide = CGTGCAAA; value = 0.158
Oligonucleotide = AGAATATC; value = 0.0316

For quick reference, copied from above (block 1):
Oligonucleotide = ATCTCTTTCCTTACTTCCCAGTGCTAG; value = 1.4 z-score
Oligonucleotide = TCTCTTTCCTTCTTGATGCAGTGCTAG; value = 1.53 z-score
Oligonucleotide = GGTCAGTCAGGTCACTTCTGGTGCTAG; value = -0.408 z-score
Oligonucleotide = GACGGACTGGGTTACGGGACGTGCTAG; value = -0.441 z-score
Oligonucleotide = ATGTTTTGAGTTTTCCTTCAGTGCTAG; value = 1.06 z-score
Oligonucleotide = TTAGCTCTCGGACTGGGTTAGTGCTAG; value = -0.305 z-score
Oligonucleotide = TTAGATACCGGGTTTCGATTAGTGCTA; value = 6.46 z-score
